Published values gathered from unrelated publications.
Protocols differ between the studies behind these lines.
EGFR L861Q: Epidermal growth factor receptor (EGFR, Homo sapiens, UniProt P00533, L861Q)
EGFR L858R: Epidermal growth factor receptor (EGFR, Homo sapiens, UniProt P00533, L858R)
Chain of UniProt P49116 (whole entry, looked up): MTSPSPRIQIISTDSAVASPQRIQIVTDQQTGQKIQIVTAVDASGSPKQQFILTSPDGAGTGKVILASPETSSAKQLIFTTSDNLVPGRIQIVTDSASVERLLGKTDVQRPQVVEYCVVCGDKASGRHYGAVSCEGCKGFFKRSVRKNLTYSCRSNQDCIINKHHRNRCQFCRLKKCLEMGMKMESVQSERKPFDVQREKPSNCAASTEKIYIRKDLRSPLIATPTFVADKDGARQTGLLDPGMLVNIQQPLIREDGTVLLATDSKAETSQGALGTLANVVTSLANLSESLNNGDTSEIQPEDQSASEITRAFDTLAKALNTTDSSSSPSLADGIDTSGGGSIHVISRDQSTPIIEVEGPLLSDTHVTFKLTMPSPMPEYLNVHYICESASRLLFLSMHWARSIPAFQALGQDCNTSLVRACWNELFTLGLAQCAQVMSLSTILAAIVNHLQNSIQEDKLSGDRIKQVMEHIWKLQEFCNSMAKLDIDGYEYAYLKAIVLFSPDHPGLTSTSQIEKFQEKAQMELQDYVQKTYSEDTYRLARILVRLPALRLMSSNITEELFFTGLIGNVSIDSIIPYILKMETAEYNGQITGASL

CCOc1cc(N2CCN(C)CC2)ccc1Nc1nc(N)n(C(=O)NCc2ccccc2S(=O)(=O)C(C)C)n1 gave a remaining activity of 4.4% (EGFR L861Q; enzyme activity; 10 µM; reference: control).
For O=C(NC1CCC1)c1ccc2nc(-c3cccc(NS(=O)(=O)NCCN4CCCCC4)c3)cn2c1, the remaining activity was 100% (Epidermal growth factor receptor (EGFR, Homo sapiens, UniProt P00533, del752-759); enzyme activity; 10 µM).
For CC(C)Oc1cc(N2CCN(C)CC2)ccc1Nc1nc(N)n(C(=O)NCc2ccccc2S(=O)(=O)C(C)C)n1, the remaining activity was 26% (EGFR L858R; enzyme activity; 10 µM; reference: control).
With Nc1nc(OCc2cc(Br)cs2)c2[nH]cnc2n1 the viability was 113% (OCI-Ly1; 0.5 µM, 120 h).
With CCCN[C@H]1CCc2nc(N)sc2C1 the Kd was 7.56 nM (Nuclear receptor subfamily 2 group C member 2, ligand-binding domain (Homo sapiens, UniProt P49116); binding).
For COc1ccc(CCc2nc3cc(-c4c(C)noc4C)ccc3n2C[C@H](C)N2CCOCC2)cc1Cl, the viability was 70.7% (OCI-Ly1; 1 µM, 120 h).
The inhibition of COc1ccc(-c2nn(-c3ccc(S(C)(=O)=O)cc3)cc2/C=N/N=c2\[nH]c(-c3ccc(Br)cc3)cs2)cc1 is reported as 86% (Epidermal growth factor receptor (EGFR, Homo sapiens, UniProt P00533); kinase activity, inhibitor; 10 µM).
C=CC(=O)N1CCC(C(=O)NCC(=O)N2CCN(c3nc(-c4cnc(N)nc4C(F)F)nc(N4CCOCC4)n3)CC2)CC1 gave a remaining binding of 100% (Epidermal growth factor receptor (EGFR, Homo sapiens, UniProt P00533, A750P/del747-749); KINOMEscan; 1 µM).
With COc1cc(N2CCN(C)CC2)ccc1Nc1nc(N)n(C(=O)NCc2ccccc2S(=O)(=O)C(C)C)n1 the remaining activity was 1.9% (EGFR L861Q; enzyme activity; 10 µM; reference: control).
With CC(C)Cc1ccc(-c2nn(-c3ccc(S(C)(=O)=O)cc3)cc2/C=N/N=c2\[nH]c(-c3ccc([N+](=O)[O-])cc3)cs2)cc1 the inhibition was 73% (EGFR L858R; kinase activity, inhibitor; 1 µM).
The remaining binding of C[C@@H](c1ccc(-n2cnc3c(N)ncnc32)cc1)N1CCc2nn(C)c(Cc3ccccc3)c2C1=O is reported as 97% (Epidermal growth factor receptor (EGFR, Homo sapiens, UniProt P00533, L858R/T790M); KINOMEscan; 0.1 µM; reference: DMSO control).
With COc1ccc(-c2nn(-c3ccc(S(C)(=O)=O)cc3)cc2C=N/N=c2\[nH]c(-c3ccc([N+](=O)[O-])cc3)cs2)cc1 the inhibition was 88.9% (EGFR L858R; kinase activity, inhibitor; 10 µM).
C=CC(=O)N1CCC(COCC(=O)N2CCN(c3nc(-c4cnc(N)nc4C(F)F)nc(N4CCOC[C@@H]4C)n3)CC2)CC1 gave a remaining binding of 100% (EGFR L861Q; KINOMEscan; 1 µM; reference: DMSO control).

Some of these lines once more:
For CC(C)Oc1cc(N2CCN(C)CC2)ccc1Nc1nc(N)n(C(=O)NCc2ccccc2S(=O)(=O)C(C)C)n1, the remaining activity was 26% (EGFR L858R; enzyme activity; 10 µM; reference: control).
The inhibition of COc1ccc(-c2nn(-c3ccc(S(C)(=O)=O)cc3)cc2/C=N/N=c2\[nH]c(-c3ccc(Br)cc3)cs2)cc1 is reported as 86% (Epidermal growth factor receptor (EGFR, Homo sapiens, UniProt P00533); kinase activity, inhibitor; 10 µM).
